{"data": "Experimental data collected from several papers", "ALB": "Albumin (ALB, Bos taurus, UniProt P02769)", "SLC22A1": "Solute carrier family 22 member 1 (SLC22A1, Homo sapiens, UniProt O15245)", "SLCO1B1": "Solute carrier organic anion transporter family member 1B1 (SLCO1B1, Homo sapiens, UniProt Q9Y6L6)", "AHR": "Aryl hydrocarbon receptor (AHR, Homo sapiens, UniProt P35869)", "CYP2E1": "Cytochrome P450 2E1 (CYP2E1, Homo sapiens, UniProt P05181)", "note": "Each line is one published result; not all experiments were run side by side. Values joined by “and” are separate records of one study, mostly repeats; a detail may differ. Numbers after ± are the reported error.", "chain of UniProt P05181 (whole entry, looked up)": "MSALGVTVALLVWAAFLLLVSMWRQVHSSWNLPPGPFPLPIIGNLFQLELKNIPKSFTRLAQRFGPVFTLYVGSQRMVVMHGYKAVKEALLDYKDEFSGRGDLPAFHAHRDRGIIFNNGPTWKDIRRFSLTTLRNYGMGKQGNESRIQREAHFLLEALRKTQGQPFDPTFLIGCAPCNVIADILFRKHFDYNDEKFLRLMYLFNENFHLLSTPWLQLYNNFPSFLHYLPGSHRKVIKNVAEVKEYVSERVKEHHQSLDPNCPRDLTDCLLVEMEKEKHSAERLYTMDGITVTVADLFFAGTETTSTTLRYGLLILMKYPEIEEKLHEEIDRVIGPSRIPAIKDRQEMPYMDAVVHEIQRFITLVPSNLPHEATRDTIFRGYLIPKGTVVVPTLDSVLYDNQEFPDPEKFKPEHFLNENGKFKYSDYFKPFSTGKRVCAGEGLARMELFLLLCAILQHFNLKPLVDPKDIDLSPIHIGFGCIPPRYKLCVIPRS", "chain of UniProt O15245 (whole entry, looked up)": "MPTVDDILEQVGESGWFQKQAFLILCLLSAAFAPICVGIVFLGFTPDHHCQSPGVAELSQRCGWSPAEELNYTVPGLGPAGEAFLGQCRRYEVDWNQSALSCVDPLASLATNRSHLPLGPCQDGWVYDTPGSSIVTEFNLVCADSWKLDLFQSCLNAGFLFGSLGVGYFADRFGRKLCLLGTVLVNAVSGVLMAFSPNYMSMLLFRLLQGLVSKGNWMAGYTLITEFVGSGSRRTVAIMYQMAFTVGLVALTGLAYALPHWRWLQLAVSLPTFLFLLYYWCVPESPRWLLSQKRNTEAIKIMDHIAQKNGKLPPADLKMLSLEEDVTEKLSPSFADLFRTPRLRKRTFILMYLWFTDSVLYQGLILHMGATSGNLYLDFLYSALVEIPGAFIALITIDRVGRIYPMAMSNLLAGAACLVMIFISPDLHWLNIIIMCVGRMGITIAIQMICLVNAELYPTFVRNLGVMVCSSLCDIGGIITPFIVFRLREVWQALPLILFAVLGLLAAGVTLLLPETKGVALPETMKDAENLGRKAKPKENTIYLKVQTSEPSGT", "chain of UniProt P35869 (whole entry, looked up)": "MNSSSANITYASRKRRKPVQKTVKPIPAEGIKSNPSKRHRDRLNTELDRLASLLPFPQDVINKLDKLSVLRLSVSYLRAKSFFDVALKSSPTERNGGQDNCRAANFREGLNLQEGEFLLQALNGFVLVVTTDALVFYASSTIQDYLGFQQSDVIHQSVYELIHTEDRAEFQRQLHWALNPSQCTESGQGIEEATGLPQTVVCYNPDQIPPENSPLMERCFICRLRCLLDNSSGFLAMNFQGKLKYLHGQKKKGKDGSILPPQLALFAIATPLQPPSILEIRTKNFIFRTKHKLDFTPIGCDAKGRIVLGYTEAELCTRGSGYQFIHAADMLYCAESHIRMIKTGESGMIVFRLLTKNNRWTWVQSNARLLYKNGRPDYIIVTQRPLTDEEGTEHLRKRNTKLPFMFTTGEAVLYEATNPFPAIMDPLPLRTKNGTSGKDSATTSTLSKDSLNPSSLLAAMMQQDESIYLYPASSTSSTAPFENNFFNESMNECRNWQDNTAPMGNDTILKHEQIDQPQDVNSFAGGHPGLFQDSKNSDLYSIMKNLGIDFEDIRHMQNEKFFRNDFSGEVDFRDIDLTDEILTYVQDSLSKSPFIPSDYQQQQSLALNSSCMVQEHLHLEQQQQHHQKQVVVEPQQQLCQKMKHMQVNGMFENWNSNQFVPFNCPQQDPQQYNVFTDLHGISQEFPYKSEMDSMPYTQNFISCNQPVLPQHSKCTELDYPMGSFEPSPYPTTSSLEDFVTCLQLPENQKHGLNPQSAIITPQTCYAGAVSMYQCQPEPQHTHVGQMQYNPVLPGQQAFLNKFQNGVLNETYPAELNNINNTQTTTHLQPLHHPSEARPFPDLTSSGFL", "chain of UniProt P02769 (whole entry, looked up)": "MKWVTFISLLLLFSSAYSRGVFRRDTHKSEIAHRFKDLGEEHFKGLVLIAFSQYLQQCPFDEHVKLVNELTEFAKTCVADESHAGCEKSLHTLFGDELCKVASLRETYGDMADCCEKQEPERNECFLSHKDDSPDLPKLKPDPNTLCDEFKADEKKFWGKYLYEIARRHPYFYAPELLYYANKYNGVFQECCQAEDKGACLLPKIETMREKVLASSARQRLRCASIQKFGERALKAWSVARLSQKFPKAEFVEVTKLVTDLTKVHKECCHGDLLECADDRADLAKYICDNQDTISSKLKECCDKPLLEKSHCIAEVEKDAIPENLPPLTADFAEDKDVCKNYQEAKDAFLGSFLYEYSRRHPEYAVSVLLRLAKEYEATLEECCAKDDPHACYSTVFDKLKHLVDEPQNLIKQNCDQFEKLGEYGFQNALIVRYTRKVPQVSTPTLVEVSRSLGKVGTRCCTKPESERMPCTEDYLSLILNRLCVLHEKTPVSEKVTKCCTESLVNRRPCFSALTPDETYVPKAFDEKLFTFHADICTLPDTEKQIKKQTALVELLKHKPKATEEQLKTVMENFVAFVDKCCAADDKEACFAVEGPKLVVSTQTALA", "chain of UniProt Q9Y6L6 (whole entry, looked up)": "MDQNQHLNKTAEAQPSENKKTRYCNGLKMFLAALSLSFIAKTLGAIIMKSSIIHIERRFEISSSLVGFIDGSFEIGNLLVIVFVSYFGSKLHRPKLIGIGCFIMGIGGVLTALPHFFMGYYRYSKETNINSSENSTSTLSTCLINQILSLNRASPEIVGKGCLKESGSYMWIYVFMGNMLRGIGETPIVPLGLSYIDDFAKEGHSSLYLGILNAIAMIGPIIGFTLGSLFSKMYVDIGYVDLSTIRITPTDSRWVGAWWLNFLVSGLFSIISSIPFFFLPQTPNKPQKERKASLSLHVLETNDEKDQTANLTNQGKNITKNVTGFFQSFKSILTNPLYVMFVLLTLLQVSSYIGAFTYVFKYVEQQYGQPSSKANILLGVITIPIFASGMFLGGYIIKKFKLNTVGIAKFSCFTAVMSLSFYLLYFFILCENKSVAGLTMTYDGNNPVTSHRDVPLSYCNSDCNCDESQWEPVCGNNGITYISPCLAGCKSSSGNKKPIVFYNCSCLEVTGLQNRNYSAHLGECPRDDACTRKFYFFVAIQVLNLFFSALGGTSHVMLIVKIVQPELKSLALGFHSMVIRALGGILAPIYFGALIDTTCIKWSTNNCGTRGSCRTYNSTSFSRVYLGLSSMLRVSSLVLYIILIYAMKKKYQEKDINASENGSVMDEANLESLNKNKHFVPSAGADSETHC", "chain of UniProt P08183 (whole entry, looked up)": "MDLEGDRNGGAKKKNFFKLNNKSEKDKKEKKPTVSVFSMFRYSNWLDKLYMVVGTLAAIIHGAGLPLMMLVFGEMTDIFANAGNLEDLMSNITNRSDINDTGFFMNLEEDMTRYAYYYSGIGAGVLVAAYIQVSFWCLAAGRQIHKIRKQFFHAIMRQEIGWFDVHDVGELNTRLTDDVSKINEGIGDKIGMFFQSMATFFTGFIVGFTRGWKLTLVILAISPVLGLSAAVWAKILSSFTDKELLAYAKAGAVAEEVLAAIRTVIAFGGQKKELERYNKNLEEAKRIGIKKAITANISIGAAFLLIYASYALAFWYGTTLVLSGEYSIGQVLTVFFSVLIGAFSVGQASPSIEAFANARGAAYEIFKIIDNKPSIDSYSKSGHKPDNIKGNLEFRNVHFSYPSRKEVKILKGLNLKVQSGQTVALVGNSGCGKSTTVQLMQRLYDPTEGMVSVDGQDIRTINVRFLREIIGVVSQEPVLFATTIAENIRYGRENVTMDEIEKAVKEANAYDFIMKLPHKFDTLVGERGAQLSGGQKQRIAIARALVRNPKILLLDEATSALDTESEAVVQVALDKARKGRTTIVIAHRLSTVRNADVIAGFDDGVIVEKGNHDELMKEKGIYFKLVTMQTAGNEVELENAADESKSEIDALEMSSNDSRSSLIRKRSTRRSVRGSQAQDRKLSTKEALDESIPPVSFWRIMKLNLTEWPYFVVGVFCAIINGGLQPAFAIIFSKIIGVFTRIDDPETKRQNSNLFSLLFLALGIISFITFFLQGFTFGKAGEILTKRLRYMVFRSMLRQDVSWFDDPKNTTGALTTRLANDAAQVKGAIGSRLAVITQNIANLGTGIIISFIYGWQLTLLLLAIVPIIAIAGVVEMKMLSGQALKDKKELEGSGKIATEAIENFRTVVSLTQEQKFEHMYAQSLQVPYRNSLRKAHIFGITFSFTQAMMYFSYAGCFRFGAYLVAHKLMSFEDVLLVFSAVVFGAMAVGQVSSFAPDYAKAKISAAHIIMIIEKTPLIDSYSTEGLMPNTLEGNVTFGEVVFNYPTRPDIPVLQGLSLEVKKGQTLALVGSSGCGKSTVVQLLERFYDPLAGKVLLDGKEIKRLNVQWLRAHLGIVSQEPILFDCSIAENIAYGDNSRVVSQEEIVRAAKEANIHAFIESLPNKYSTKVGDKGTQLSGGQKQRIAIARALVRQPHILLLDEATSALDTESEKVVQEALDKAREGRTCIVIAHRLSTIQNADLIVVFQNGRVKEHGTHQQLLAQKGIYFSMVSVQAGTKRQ"}
{"SMILES": "COc1cc(-c2[o+]c3cc(O)cc(O)c3cc2O[C@@H]2O[C@H](CO)[C@@H](O)[C@H](O)[C@H]2O)cc(OC)c1O", "target": "ALB", "test": "fluorescence quenching", "setting": "pH 7, 20 °C, with: 1 µM BSA", "measurement": "Kd", "value": "99.1 ± 9.38 µM"}
{"SMILES": "CCN(CC)CCCC(C)Nc1ccnc2cc(Cl)ccc12 (stereo not shown)", "target": "SLC22A1", "test": "transport, inhibitor", "test system": "transiently transfected cells", "setting": "100 µM, 10 (unit not given), with: metformin", "measurement": "inhibition", "value": "91.5%"}
{"SMILES": "CC1(C)[C@H](C(=O)OCc2cccc(Oc3ccccc3)c2)[C@@H]1C=C(Cl)Cl", "target": "human microsomal CES1", "test": "IVIVE from expressed enzymes", "test system": "human, 5 years old, expressed human CES1", "setting": "0.1 µM", "scale": "reference: total hepatic CLint in vivo", "measurement": "relative enzyme contribution", "value": "48.7%"}
{"SMILES": "COc1ccc2cc1Oc1ccc(cc1)C[C@H]1c3cc(c(OC)cc3CCN1C)Oc1c(OC)c(OC)cc3c1[C@H](C2)N(C)CC3", "target": "SLCO1B1", "test": "transport, inhibitor", "setting": "10 µM, with: EG", "measurement": "inhibition", "value": "31.8%"}
{"SMILES": "O=C(O)C(F)(F)C(F)(F)C(F)(F)C(F)(F)C(F)(F)C(F)(F)C(F)(F)F", "target": "SLCO1B1", "test": "substrate", "test system": "CHO stably expressing", "setting": "10 µM", "measurement": "linear uptake duration", "value": "1 min"}
{"SMILES": "CCS(=O)(=O)N1CC(CC#N)(n2cc(-c3ncnc4[nH]ccc34)cn2)C1", "target": "SLC22A1", "test": "transport, inhibitor", "setting": "50 µM, 10 (unit not given), with: metformin", "measurement": "inhibition", "value": "67.2%"}
{"SMILES": "CC1(C)C(/C=C(\\Cl)C(F)(F)F)C1C(=O)OC(C#N)c1cccc(Oc2ccccc2)c1 (stereo not shown)", "target": "human microsomal CES1", "test": "IVIVE from expressed enzymes", "test system": "human, 5 years old", "scale": "reference: total hepatic CLint in vivo", "measurement": "relative enzyme contribution", "value": "58.9%"}
{"SMILES": "COc1cc(N2CC[C@@]3(O)C(=O)c4cc(C)c(C)cc4N=C23)ccn1", "target": "CYP2C", "test": "inhibitor", "measurement": "IC50", "value": "< 50 µM"}
{"SMILES": "Cc1c(COC(=O)[C@@H]2[C@H](/C=C(\\Cl)C(F)(F)F)C2(C)C)cccc1-c1ccccc1 (racemic)", "target": "human CYP3A5", "test": "IVIVE from expressed enzymes", "test system": "human, liver, in vivo scaled", "setting": "0.1 µM, age-specific", "measurement": "enzyme contribution to CLint", "value": "1.76%"}
{"SMILES": "Oc1ccc(-c2cccc(Cl)c2)cc1Cl", "target": "AHR", "test": "reporter gene, antagonist", "test system": "AZ-AHR cells", "setting": "25 µM, with: TCDD 4.5 nM", "scale": "reference: TCDD 4.5 nM", "measurement": "maximum activity", "value": "25%"}
{"SMILES": "O=S(=O)(NCCNC/C=C/c1ccc(Br)cc1)c1cccc2cnccc12", "target": "PKA", "test": "inhibitor", "test system": "mouse zygotes", "setting": "20 µM, injection, hCG, 72 h post, early embryonic development", "measurement": "dead embryos", "value": "0% and 5%"}
{"SMILES": "Oc1cc(Cl)cc(-c2cccc(Cl)c2)c1", "target": "AHR", "test": "reporter gene, antagonist", "test system": "AZ-AHR cells", "setting": "25 µM, with: TCDD 4.5 nM", "scale": "reference: TCDD 4.5 nM", "measurement": "maximum activity", "value": "31%"}
{"SMILES": "CCCCCCCCc1ccc(CCC(N)(CO)CO)cc1", "target": "SLC22A1", "test": "transport, inhibitor", "test system": "transiently transfected cells", "setting": "100 µM, 10 (unit not given), with: metformin", "measurement": "inhibition", "value": "20%"}
{"SMILES": "CC(C)[C@H](C(=O)O[C@H](C#N)c1cccc(Oc2ccccc2)c1)c1ccc(Cl)cc1", "target": "human microsomal CES1", "test": "IVIVE from expressed enzymes", "test system": "human, liver, in vivo scaled", "setting": "age-specific", "measurement": "enzyme contribution to CLint", "value": "44.4%"}
{"SMILES": "CCCCO", "target": "CYP2E1", "test": "enzyme activity, inhibitor", "measurement": "IC50", "value": "110 µM"}
{"SMILES": "Clc1ccccc1-c1ccccc1Cl", "target": "AHR", "test": "reporter gene, antagonist", "test system": "AZ-AHR cells", "setting": "40 µM, with: TCDD 4.5 nM", "scale": "reference: TCDD 4.5 nM", "measurement": "maximum activity", "value": "100%"}
{"SMILES": "CC(C)=CC1C(C(=O)OC(C#N)c2cccc(Oc3ccccc3)c2)C1(C)C (stereo not shown)", "target": "human microsomal CES1", "test": "IVIVE from expressed enzymes", "test system": "human, liver, in vivo scaled", "setting": "age-specific", "measurement": "enzyme contribution to CLint", "value": "50%"}
{"SMILES": "CN(C)N=O", "target": "CYP2E1", "test": "enzyme activity, inhibitor", "setting": "pH 7.4, 37 °C, with: 4-nitrophenol 50 µM", "measurement": "IC50", "value": "230 µM"}
{"SMILES": "NC(=O)c1nc(F)c[nH]c1=O", "target": "SLC22A1", "test": "transport, inhibitor", "test system": "transiently transfected cells", "setting": "100 µM, 10 (unit not given), with: metformin", "measurement": "inhibition", "value": "-2%"}
{"SMILES": "CC[C@H](C)[C@H](NC(=O)[C@H](CCCCN)NC(=O)[C@H](CCC(=O)O)NC(=O)[C@H](CCCCN)NC(=O)[C@H](CO)NC(=O)[C@H](CCCCN)NC(=O)[C@H](CCCNC(=N)N)NC(=O)[C@H](Cc1ccccc1)NC(=O)[C@H](Cc1ccccc1)NC(=O)[C@H](CC(=O)O)NC(=O)CNC(=O)[C@H](CC(C)C)NC(=O)[C@@H](N)CC(C)C)C(=O)NCC(=O)N[C@@H](CCCCN)C(=O)N[C@@H](CCC(=O)O)C(=O)N[C@@H](Cc1ccccc1)C(=O)N[C@@H](CCCCN)C(=O)N[C@@H](CCCNC(=N)N)C(=O)N[C@H](C(=O)N[C@H](C(=O)N[C@@H](CCC(N)=O)C(=O)N[C@@H](CCCNC(=N)N)C(=O)N[C@H](C(=O)N[C@@H](CCCCN)C(=O)N[C@@H](CC(=O)O)C(=O)N[C@@H](Cc1ccccc1)C(=O)N[C@@H](CC(C)C)C(=O)N[C@@H](CCCNC(=N)N)C(=O)N[C@@H](CC(N)=O)C(=O)N[C@@H](CC(C)C)C(=O)N[C@H](C(=O)N1CCC[C@H]1C(=O)N[C@@H](CCCNC(=N)N)C(=O)N[C@H](C(=O)N[C@@H](CCC(=O)O)C(=O)N[C@@H](CO)C(=O)O)[C@@H](C)O)C(C)C)[C@@H](C)CC)C(C)C)[C@@H](C)CC", "target": "human neutrophil elastase", "test": "LC-MS", "setting": "40 µM, 120 min, pH 7.5, 37 °C", "scale": "reference: 0 h", "measurement": "remaining intact peptide", "value": "1.42%"}
{"SMILES": "CCOc1ccc(-c2nc3ccc(-c4nc5ccc(N6CCN(C)CC6)cc5[nH]4)cc3[nH]2)cc1", "target": "ALB", "test": "binding, fluorescence titration", "test system": "PBS", "setting": "1 h", "measurement": "Kd", "value": "48 ± 8 µM"}
{"SMILES": "CC(C)CC(=O)OC[C@H]1O[C@@](C#N)(c2ccc3c(N)ncnn23)[C@H](O)[C@@H]1O", "target": "ABCB1 (Homo sapiens, UniProt P08183)", "test system": "Caco-2", "setting": "0.9 µM, 2 h", "measurement": "Papp B to A", "value": "1.25 ×10⁻⁶ cm/s"}
{"SMILES": "COC(=O)c1cccc(C(=O)c2c[nH]c3ccccc23)c1", "target": "AHR", "test": "reporter gene, agonist, XRE luciferase", "test system": "HepG2", "setting": "10 µM", "scale": "reference: ITE", "measurement": "activity at 10 µM", "value": "4%"}
{"SMILES": "NC(=O)c1ncn([C@@H]2O[C@H](CO)[C@@H](O)[C@H]2O)n1", "target": "SLC22A1", "test": "transport, inhibitor", "test system": "transiently transfected cells", "setting": "100 µM, 10 (unit not given), with: metformin", "measurement": "inhibition", "value": "-7.7%"}
{"SMILES": "CC1(C)C(C=C(Cl)Cl)C1C(=O)OC(C#N)c1ccc(F)c(Oc2ccccc2)c1 (stereo not shown)", "target": "human microsomal CES1", "test": "IVIVE from expressed enzymes", "test system": "human, 5 years old, expressed human CES1", "setting": "0.1 µM", "scale": "reference: total hepatic CLint in vivo", "measurement": "relative enzyme contribution", "value": "57.5%"}
{"SMILES": "CN(C)C(=O)COC(=O)Cc1ccc(OC(=O)c2ccc(NC(=N)N)cc2)cc1", "target": "SLC22A1", "test": "transport, inhibitor", "test system": "transiently transfected cells", "setting": "100 µM, 10 (unit not given), with: metformin", "measurement": "inhibition", "value": "76.4%"}
{"SMILES": "C=CC1CO1 (stereo not shown)", "target": "CYP2E1", "test": "enzyme activity, inhibitor", "setting": "with: 4-nitrophenol 50 µM", "measurement": "IC50", "value": "260 µM"}
{"SMILES": "CC[C@H](C)[C@H](NC(=O)[C@H](CCCCN)NC(=O)[C@@H](NC(=O)[C@H](Cc1ccc(O)cc1)NC(=O)[C@H](CCCCN)NC(=O)[C@H](CCCCN)NC(=O)CNC(=O)[C@H](CCCCN)NC(=O)[C@@H](NC(=O)[C@H](C)NC(=O)[C@H](CC(C)C)NC(=O)[C@H](Cc1c[nH]c2ccccc12)NC(=O)CNC(=O)[C@@H](NC(=O)[C@H](Cc1ccccc1)NC(=O)[C@H](CCCCN)NC(=O)[C@H](CC(C)C)NC(=O)[C@H](Cc1ccccc1)NC(=O)[C@H](C)NC(=O)CNC(=O)[C@@H](N)CCSC)C(C)C)[C@@H](C)O)C(C)C)C(=O)N[C@@H](C)C(=O)N[C@@H](Cc1c[nH]c2ccccc12)C(=O)N[C@@H](CC(=O)O)C(=O)N[C@@H](Cc1c[nH]cn1)C(=O)N[C@@H](CCCCN)C(=O)NCC(=O)N[C@H](C(=O)N[C@H](C(=O)N[C@@H](CCSC)C(=O)N[C@@H](CCCCN)C(=O)N[C@@H](Cc1c[nH]c2ccccc12)C(=O)N[C@@H](CC(C)C)C(=O)N[C@@H](CC(N)=O)C(=O)N[C@@H](C)C(=O)NCC(=O)N[C@@H](CCC(N)=O)C(=O)N[C@H](C(=O)N[C@@H](Cc1ccccc1)C(=O)N[C@H](C(=O)N[C@@H](Cc1c[nH]c2ccccc12)C(=O)N[C@H](C(=O)N[C@@H](Cc1ccc(O)cc1)C(=O)N[C@@H](CCC(=O)O)C(=O)N[C@@H](CCC(N)=O)C(=O)N[C@H](C(=O)N[C@@H](CCCCN)C(=O)N[C@@H](CCCCN)C(=O)N[C@@H](CC(C)C)C(=O)N[C@@H](Cc1c[nH]c2ccccc12)C(=O)N[C@H](C(=O)O)[C@@H](C)O)[C@@H](C)CC)C(C)C)[C@@H](C)O)[C@@H](C)O)[C@@H](C)CC)[C@@H](C)O", "target": "lysozyme", "test system": "Pediococcus damnosus, CECT 4797", "setting": "concentration not given, 3 h, 37 °C, with: lysozyme 1 mg/mL", "measurement": "residual antimicrobial activity", "value": "no effect"}
{"note": "A few entries again:"}
{"SMILES": "CN(C)N=O", "target": "CYP2E1", "test": "enzyme activity, inhibitor", "setting": "pH 7.4, 37 °C, with: 4-nitrophenol 50 µM", "measurement": "IC50", "value": "230 µM"}
{"SMILES": "COC(=O)c1cccc(C(=O)c2c[nH]c3ccccc23)c1", "target": "AHR", "test": "reporter gene, agonist, XRE luciferase", "test system": "HepG2", "setting": "10 µM", "scale": "reference: ITE", "measurement": "activity at 10 µM", "value": "4%"}
{"SMILES": "CC(C)CC(=O)OC[C@H]1O[C@@](C#N)(c2ccc3c(N)ncnn23)[C@H](O)[C@@H]1O", "target": "ABCB1 (Homo sapiens, UniProt P08183)", "test system": "Caco-2", "setting": "0.9 µM, 2 h", "measurement": "Papp B to A", "value": "1.25 ×10⁻⁶ cm/s"}
